Experimental data gathered from unrelated publications.
Every numbered part comes from another study and shows a few of its results, in no order.

Block 1
Target: Interferon regulatory factor 3, full length, phosphomimetic (IRF3, Homo sapiens, UniProt Q14653, residues 1-427, S386D/S396D/S398D/S402D/T404D/S405D)
Method: protein-binding microarray
Form: double-stranded DNA, one strand shown
Sample: in vitro
Concentration: 2540 nM top
Notes: 60-bp whole probe
Together with: salmon DNA 0.4 mg/ml
Baseline: random background probes
Direction: higher = stronger binding
Constant ends, left off below: GCCTAGCAC … GTCTTGATTCGCTTGACGCTGCTG
Target sequence (chain): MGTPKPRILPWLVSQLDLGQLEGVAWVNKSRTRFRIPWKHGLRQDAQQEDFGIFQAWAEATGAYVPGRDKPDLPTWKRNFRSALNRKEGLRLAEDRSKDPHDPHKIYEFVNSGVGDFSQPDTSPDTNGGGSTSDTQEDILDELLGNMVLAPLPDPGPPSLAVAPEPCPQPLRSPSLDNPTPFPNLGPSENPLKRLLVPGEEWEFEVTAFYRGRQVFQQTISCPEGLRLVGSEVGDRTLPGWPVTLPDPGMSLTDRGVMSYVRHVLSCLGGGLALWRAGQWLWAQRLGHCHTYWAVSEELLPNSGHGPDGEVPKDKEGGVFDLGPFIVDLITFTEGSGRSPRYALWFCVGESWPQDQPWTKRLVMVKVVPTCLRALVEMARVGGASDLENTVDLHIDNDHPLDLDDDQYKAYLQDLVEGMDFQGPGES
Strand | fitted relative affinity
GACGGTATCGGTATAGGGACGTGCTAG | 3.58 z-score
TTAGATCTCAGTCTCGAATAGTGCTAG | 0.509 z-score
GACGGTATGCTTCTCCTGACGTGCTAG | 0.116 z-score
TTAGATTTCGGGTATCGTTTAGTGCTA | 1.75 z-score
AATGACTCTATGAAGTAGTTGTGCTAG | -0.502 z-score
TTCGGTTTCGGGTTTCGGTTAGTGCTA | 6.55 z-score
GACGGTATCGGAATGGGGACGTGCTAG | 3.48 z-score
GACGATTTCAGTATGGAGACGTGCTAG | 1.49 z-score
GACGGACTGGACGCTGGGGACGTGCTA | -0.763 z-score
TAAGGAGGCAGGGATGCTCCGTGCTAG | -1.21 z-score
ATGAGTCTCAATATTAGAGTGTGCTAG | -0.0724 z-score
TTAGGACTCGGGTATCGGTTAGTGCTA | 0.212 z-score
GACCATATCAGTATCGAGACGTGCTAG | 1.98 z-score
TTATAACTGGGGTTTCGATTAGTGCTA | 1.65 z-score
GACGGTATTGGACTGGGGACGTGCTAG | -0.201 z-score
TTAGGTATCCTTTACCTTTAGTGCTAG | 3.76 z-score
GACGGACTGGGGACTGGGAACGTGCTA | -0.944 z-score
GACGGTTTCGGTCTCGGAACGTGCTAG | 8.3 z-score
TGGGTAATGCTTCTGTATTCGTGCTAG | -0.579 z-score
TTGTGTTTTCATTTTATGACGTGCTAG | 3.45 z-score
GACGGTTCCGGTTTCGGGTCGTGCTAG | 6.67 z-score
CAAAAATGATTGGTTGAACAGTGCTAG | 0.259 z-score
GACGAACTGAGACTGGAGGCGTGCTAG | -0.483 z-score
TCAACTTTCTTTACTTCACTGTGCTAG | 1.68 z-score
GACGGACTGGGTTTCCGGACGTGCTAG | 1.13 z-score

Block 2
Target: RING finger protein unkempt homolog, zinc fingers 1-6, GST-SBP tag (UNK, Homo sapiens, UniProt Q9C0B0, residues 30-357)
Method: RNA Bind-n-Seq
Form: RNA
Sample: in vitro
Concentration: not given
Notes: RNA with constant flanks, ends assumed
Baseline: input RNA pool
Direction: higher = stronger binding
Constant ends, left off below: GGGAGUUCUACAGUCCGACGAUC … CAACAGAGGAUUGAGCAUCA
Construct (chain): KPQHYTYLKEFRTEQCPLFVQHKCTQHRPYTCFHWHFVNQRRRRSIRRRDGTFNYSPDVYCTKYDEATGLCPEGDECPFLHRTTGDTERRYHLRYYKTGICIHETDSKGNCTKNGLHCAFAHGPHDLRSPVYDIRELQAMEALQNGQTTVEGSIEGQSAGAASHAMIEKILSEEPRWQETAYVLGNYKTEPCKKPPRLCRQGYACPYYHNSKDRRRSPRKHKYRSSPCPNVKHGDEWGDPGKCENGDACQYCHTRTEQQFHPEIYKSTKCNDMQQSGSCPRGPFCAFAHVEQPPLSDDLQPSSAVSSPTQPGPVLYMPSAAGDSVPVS
Strand | bound/input enrichment
GAAUUUGCCUAUACUUCUGUACUAAGUUUUGACUUUUGUAGCAUGGCUGAUGUAGCCGUCUCCGCUCGCCACCUUUUUAUGUCAGAAGUUUUAGAAAUUUGUGAAAGUGUACAUAAACUA | 0.403 ratio
AAUUUUCUUUUUUGGCCCUAGGCUGGUUGGGACCUCUACAGCUUCAUUCUUUCACCAUUAAACCGUGGCCUUUUUCAGUAUUUUCCCUCUUCCCCUUUAUAAAUUAUGCUAAAGCCACAA | 1.75 ratio
GAUCUAAUCCAGGAUGUUGAAUGGGAUUAUUGCCAUCUUACACCAUAUUUUUGUAAAAUGCCGCUUAAUCAUAAUCUCACACUGAAGAUUUUGCAUCACUUUUGCUAUUAUCAUUCUUUU | 0.109 ratio
AAAUCAGAACGUCCAUGUGAUGAAGACAAGACUGAUUCAGAGACAGGAAAGUUGAUCAUGUCCGUCAAUGAGUUUUAUUAUGGAAGGCAUGAAGGAGUCACUGAGAAAGAGCCAAAGACU | 0.201 ratio
GGUUUCAAUGAAACAGAUGAUUUGAAGAGAGCUGAGAGUAUGCUUCAACAAGCAGAUAAAUCCGGUUGCAGACAGUUUGUUACCCCUGCUGAUGUUGUCAGUGGAAACCCCAAACUCAAC | 0.0969 ratio
ACGCAGUUUCCCCGAUUUCCUUCUCUCAGCCUGAAGUUCUAGAUCCUUUCGGUUUCCUCCUCCGUCCCUCCAAGGUACUUAACCCCUUUUUGCAGUUUGGACUUUGAGAUUGUGAAUCUC | 0.434 ratio
AACUUUGUACAUAGAUUUCCUUUUGUAGCUGUUUCAAUUGGCUUUGCUGUAAAUAAAAAGACCGAAUUUGGAGUUGUGUACAGUUGUGUGGAAGGCAAGAUGUACACUGCCAGAAAAGGA | 0.778 ratio
UUUAUAGAAAUCACUGAUGACCAGUUUGACUUUCAUACAUACUGUAUGAGGAAGAUUACCCUCCGAUCAUAUGUGGACUUAUUAAAACUAGAAGAUGUACUUCGACAGCAUCCAUUUUAC | 0.885 ratio
CAGCACCCCAUCAAACCAGUGGUUCAUCCAACCGCUACCCCAAGCACUGUUCCUUCCCGUCCAUUUACGCUUCAGUCUGAUCACCAGCCAAAGAAAUCAUUUGAUGCUAAUGGAGCAUCU | 0.329 ratio
GCAGAAUUUGCUGAACUAAAAACACAAAUAGAGAAAAUGAGACUAGAUUACCAACACGAAACCGAAAAUUUGCAGAAUCAACAAGACUCUGAACGGGCUGCCCAUGCUAAAGAGAUGGAA | 2.47 ratio
UUGCCCAGAUAGGGUCCCCUUCUCAUUCACAAAGUGCCCCCUCCAUGUCCCUGGACCCUCCGGAUACCCCCUGGGGCCCCCAAGUCAGAGACUGUCUGACUCAGGUUAUGCCUACAGAGU | 0.269 ratio

Block 3
Target: Fragile X messenger ribonucleoprotein 1, C-terminal low-complexity region (Fmr1, Mus musculus, UniProt P35922)
Method: RNA Bind-n-Seq
Form: RNA
Sample: in vitro
Concentration: 200 nM
Notes: whole 134-nt RNA, ends assumed
Together with: 150 mM LiCl
Baseline: input library
Direction: higher = stronger binding
All molecules: 7-deaza-guanosine replaces G
Constant ends, left off below: GGGAGUUCUACAGUCCGACGAUC … UGGAAUUCUCGGGUGUCAAGG
Strand | log2 enrichment
CCUGUGCUACACAUCGUAUGUACCGAAUCGGGGAAAAAGGGGAAAAAAAGGGGAAAGGGGAAAGUAUUAUGUUACGCCGUUCGGAUCUGC | 1.01
CUGUGCUACACAUCGUAUGUACCGAAUCGGGCCCCCCCGGCCCCCCCGGGGCCCCCCCGGGAAAGUAUUAUGUUACGCCGUUCGGAUCUG | 0.00269
UCCUGUGCUACACAUCGUAUGUACCGAAUCGGUUUUUUGGGGUUUUUUGGGUUUUUUGGAAAGUAUUAUGUUACGCCGUUCGGAUCUGCA | 0.227
CCUCAAGUCCUGUGCUACACAUCGUAUGUACCGAAUCGGUUGGUUGGGUUGGAAAGUAUUAUGUUACGCCGUUCGGAUCUGCACUUCCAG | 0.335
UGACUUUAGAGGAGGAUCUGAUGGAUAUGGCAGUGGACGUGGAUUUGGGGAUGGCUAUAAUGGGUAUGGAGGAGGACCUGGAGGUGGCAA | 0.495
UGGCCCUGGUGGCAUGCGGGGAGGAAGAGGUGGCCUCAUGGAUCGUGGUGGUCCCGGUGGAUUGUUCAGAGGUGGCCGUGGUGGAGACAG | 0.4
UGCUGGAGUGGCAGAAGACUUUUGAGGAGAAGCUCACGCCGUUGCUGAGUGUGCGGGAGUCACUCUCAGAGGAAGAGGCCCAGAAGAUGG | -2.38
UGGCCCUGGUGGCAUGCGGGGAGGAAGAGGUGGCCUCAUGGAUCGUGGUGGUCCCGGUGGCAUGUUCAGAGGUGGCCGUGGUGGAGACAG | -1.24
AAGUCCUGUGCUACACAUCGUAUGUACCGAAUCGGGAAAGGGUUUUUGGGUUUGGGAAAGUAUUAUGUUACGCCGUUCGGAUCUGCACUU | -2.5
UGGAAGGUGGAUUUUGUUUAUUUUUUUAGCUCAUUUCCAGGGGUGGGAAUUUUUUUUUAAUAUGUGUCAUGAAUAAAGUUGUUUUUGAAA | -0.733
GUCCUGUGCUACACAUCGUAUGUACCGAAUCGGGAAAAAGGAAAAAGGGAAAAAGGGGAAAGUAUUAUGUUACGCCGUUCGGAUCUGCAC | 0.295

Block 4
Target: RNA binding protein fox-1 homolog 2, RRM domain, GST-SBP tag (RBFOX2, Homo sapiens, UniProt O43251-10, residues 100-194)
Method: RNA Bind-n-Seq
Form: RNA
Sample: in vitro
Concentration: 365 nM
Notes: natural RNA segment, single round, ends assumed
Baseline: no-protein control
Direction: higher = stronger binding
Constant ends, left off below: GGGAGUUCUACAGUCCGACGAUC … UGGAAUUCUCGGGUGCCAA
Construct (chain): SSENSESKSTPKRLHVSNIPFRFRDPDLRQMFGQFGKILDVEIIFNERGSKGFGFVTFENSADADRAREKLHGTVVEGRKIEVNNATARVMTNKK
Strand | RBNS enrichment (R)
UUUAAAAUCCCAAUUUAUUUUCUAACUCUUUUAUUGGAUGUAUUUAGAACACAGUAUACCUAUAGUAUACCUAUGUGUUUAUUAUGUUUGUAAAUGGUAACUGACAUUUA | 0.808
CUGGGUGUCAGUGGGAAGGAGACAGCAGAGCUCAGGCUUUGCCCUUUGACAGAAACCUAAAGACACAUCCACAUCCAUGCAUAGGGCUGUUGCUUGUUGUGUUGUAGGCA | 2.52
UCUGAUUCAUAUUUUAGGACUUUUUGUCAACGAAAUUGGUUUUGAUCCCUUUGGGUACCAUUUUUAUUGUUUUAUGUAGAAUGUUAGAAAUUACCACUAAUUUACCUGGC | 0.327
UCCUAGCCAGCUUCCCUUCACCUGGUGUCUUGAGUAGGGCGUCUCCUGUAAUUACUGCCUUGCCAUUCUGCCCCUGGACCCUUCUCUCCGGACCAGGGAGGCGUCCCUCC | 1.55
UGCACACCAGGAGUGUUUGCACAGAAUACUGGGUGUCUUCUGUCUUGAAGAAAGGCAGUGUCCCCGAGUCACACAGCACAGCAGGUAGCAUCAACUAGAGCUAGUUAAUG | 0.406
AUUUUACAGUACAUGUUAAUAAUUUAUGUUUAAUAUUUGUAUUUGUGUUCUCUUUUGUUAUUUUACUUAGGGUAUAUGGAUAUUUUGCAAUAAUUUUAAUGAUUCUUAAG | 0.565
UUUAAGUCCUUCCUUUGAUAAUACUUCAAAACAUACACAGCUUUGCUUACUGAAUUAUUUUUGCAAAUAAUACAAGGAGGGGAAACUAACUUGCUACUAGUGUUGUUAAU | 0.245
UACUAGACAGAUGGAGAGUGGCUUGGCUGUUUCCCCCUGCAUAUUGGGGUUGAAAACUUAAAUGUGUAGUUCCAGUCCUUCUAUGCAGAGUCUCUCCUGCCCUCCCUCCU | 0.321
UAUAACAGAUUGCUUAACUUCUACUUGCCAACAUCUGCCUUGCUGGACUUGUAUGGGAUUGUCUUCUUGAUUUGAAUUGUACCGUCUUUGUUGACACAGUAGGGCUGGGC | 0.7

Some of these lines once more (block 2):
Strand | bound/input enrichment
AAAUCAGAACGUCCAUGUGAUGAAGACAAGACUGAUUCAGAGACAGGAAAGUUGAUCAUGUCCGUCAAUGAGUUUUAUUAUGGAAGGCAUGAAGGAGUCACUGAGAAAGAGCCAAAGACU | 0.201 ratio
AACUUUGUACAUAGAUUUCCUUUUGUAGCUGUUUCAAUUGGCUUUGCUGUAAAUAAAAAGACCGAAUUUGGAGUUGUGUACAGUUGUGUGGAAGGCAAGAUGUACACUGCCAGAAAAGGA | 0.778 ratio
AAUUUUCUUUUUUGGCCCUAGGCUGGUUGGGACCUCUACAGCUUCAUUCUUUCACCAUUAAACCGUGGCCUUUUUCAGUAUUUUCCCUCUUCCCCUUUAUAAAUUAUGCUAAAGCCACAA | 1.75 ratio
GGUUUCAAUGAAACAGAUGAUUUGAAGAGAGCUGAGAGUAUGCUUCAACAAGCAGAUAAAUCCGGUUGCAGACAGUUUGUUACCCCUGCUGAUGUUGUCAGUGGAAACCCCAAACUCAAC | 0.0969 ratio
